Assay results of several laboratories.
A part holds a random share of what one study measured. Positions count from the first letter of the parent shown.

Study 1
Target: UDP-N-acetylglucosamine--peptide N-acetylglucosaminyltransferase 110 kDa subunit (OGT, Homo sapiens, UniProt O15294)
Sequence of UniProt O15294 (whole entry, looked up): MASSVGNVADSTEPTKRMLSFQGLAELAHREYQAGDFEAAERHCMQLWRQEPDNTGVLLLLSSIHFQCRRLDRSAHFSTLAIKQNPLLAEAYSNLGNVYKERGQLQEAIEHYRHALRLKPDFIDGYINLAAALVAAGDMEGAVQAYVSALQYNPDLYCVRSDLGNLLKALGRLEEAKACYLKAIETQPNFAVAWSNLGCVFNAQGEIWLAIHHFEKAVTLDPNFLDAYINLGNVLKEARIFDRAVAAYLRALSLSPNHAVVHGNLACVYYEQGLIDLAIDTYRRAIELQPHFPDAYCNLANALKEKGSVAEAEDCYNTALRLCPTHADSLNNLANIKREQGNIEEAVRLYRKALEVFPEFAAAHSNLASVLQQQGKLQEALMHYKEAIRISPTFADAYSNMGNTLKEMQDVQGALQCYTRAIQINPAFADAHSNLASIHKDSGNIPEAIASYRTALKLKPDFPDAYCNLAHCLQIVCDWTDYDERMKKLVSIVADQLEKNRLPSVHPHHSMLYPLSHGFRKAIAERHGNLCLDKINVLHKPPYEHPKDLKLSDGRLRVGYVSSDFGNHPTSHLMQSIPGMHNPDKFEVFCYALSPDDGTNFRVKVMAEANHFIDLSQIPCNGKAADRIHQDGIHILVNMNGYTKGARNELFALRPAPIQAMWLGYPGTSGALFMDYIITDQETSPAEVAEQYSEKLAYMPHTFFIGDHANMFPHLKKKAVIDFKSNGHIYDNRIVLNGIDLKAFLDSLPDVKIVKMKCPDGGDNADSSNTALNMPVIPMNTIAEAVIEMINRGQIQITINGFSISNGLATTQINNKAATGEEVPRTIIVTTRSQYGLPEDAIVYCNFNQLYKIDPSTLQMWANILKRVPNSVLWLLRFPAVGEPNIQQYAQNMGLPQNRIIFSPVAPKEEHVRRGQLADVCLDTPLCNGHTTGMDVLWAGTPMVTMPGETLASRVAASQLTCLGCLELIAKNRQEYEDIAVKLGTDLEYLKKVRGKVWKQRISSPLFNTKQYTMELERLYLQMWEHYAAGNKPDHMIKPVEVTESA
Effect on: binding
Technique: phage display NGS
Form: peptide
Concentration: concentration not given
Notes: normalized abundance
Relative to: input library
| Sequence | enrichment fold change |
| --- | --- |
| SDDLYAPQYQIFFNA | 8.33 |
| HWTSMAFMHHWEPE | 6.31 |
| SAERHMHWPWNHRHS | 6.56 |
| WPHTMHAAKHDFHF | 6.24 |
| QWHPTDHHQWRVHDH | 10.4 |
| WSAQPNLYPVYQIIV | 11.8 |

Study 2
Target: PABPC1L2, full length, GST fusion (mouse, UniProt A0ABA7IW68)
Technique: RNAcompete
Form: RNA
Matrix: in vitro
Concentration: 20 nM
Notes: 7-mer, probes averaged, single round
Relative to: mean of 7-mers
Direction: higher = stronger binding
Construct (chain): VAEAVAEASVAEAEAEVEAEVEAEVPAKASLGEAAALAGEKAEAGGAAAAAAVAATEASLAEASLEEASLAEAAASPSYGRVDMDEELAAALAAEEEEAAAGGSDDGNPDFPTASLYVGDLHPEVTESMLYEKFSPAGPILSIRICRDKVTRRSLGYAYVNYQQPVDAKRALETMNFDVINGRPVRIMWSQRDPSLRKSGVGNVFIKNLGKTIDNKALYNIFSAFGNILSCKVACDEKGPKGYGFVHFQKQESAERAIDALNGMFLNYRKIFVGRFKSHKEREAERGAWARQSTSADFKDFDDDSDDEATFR
| Oligonucleotide | 7-mer Z-score |
| --- | --- |
| CGGACAG | 0.191 |
| UUAGGUG | -0.00289 |
| GAAGACG | 0.111 |
| CACUCAG | -0.0663 |
| GGGCUGA | 0.601 |
| ACGAUAG | 0.0388 |
| ACAAUUA | 0.0859 |
| UAGAACG | 0.046 |

Study 3
Target: Sodium-dependent noradrenaline transporter (SLC6A2, Homo sapiens, UniProt P23975)
Sequence of UniProt P23975 (whole entry, looked up): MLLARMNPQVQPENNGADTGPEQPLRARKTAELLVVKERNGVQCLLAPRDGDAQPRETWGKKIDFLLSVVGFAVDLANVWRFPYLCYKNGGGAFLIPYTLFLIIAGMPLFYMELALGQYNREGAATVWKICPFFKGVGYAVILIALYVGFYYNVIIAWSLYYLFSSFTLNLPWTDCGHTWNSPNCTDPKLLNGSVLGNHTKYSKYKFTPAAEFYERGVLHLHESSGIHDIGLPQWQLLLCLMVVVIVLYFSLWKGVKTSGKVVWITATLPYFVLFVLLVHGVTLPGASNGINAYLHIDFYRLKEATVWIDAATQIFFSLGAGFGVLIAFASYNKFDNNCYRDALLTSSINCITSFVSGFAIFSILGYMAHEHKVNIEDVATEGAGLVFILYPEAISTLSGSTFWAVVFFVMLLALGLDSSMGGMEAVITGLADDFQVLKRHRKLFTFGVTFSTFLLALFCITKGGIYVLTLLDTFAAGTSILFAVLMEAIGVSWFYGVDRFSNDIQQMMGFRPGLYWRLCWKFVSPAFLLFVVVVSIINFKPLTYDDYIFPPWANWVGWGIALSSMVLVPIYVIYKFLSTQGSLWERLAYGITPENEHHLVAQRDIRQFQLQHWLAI
Effect on: cell-free assay
Concentration: 10 µM
| Compound | inhibition [%] |
| --- | --- |
| Nc1nc(NCc2ccccc2)nc(-c2ccccc2CO)n1 | 32.1 |
| O=C(NCCCC1CCCCC1)c1ccc(CNC(=O)c2cnn(-c3ccccc3)c2C(F)(F)F)cc1 | -1.78 |
| COCCOc1nc(-c2ccc(Cl)nc2)nc2c1CN(C(=O)c1ncn3ccccc13)CC2 | -6.81 |
| CN(c1ccnc(CNc2nc(Nc3ccc4c(c3)CC(=O)N4)ncc2C(F)(F)F)n1)S(C)(=O)=O | 3.15 |
| C[C@H](c1ccc(F)cc1)N(Cc1ccc(Cl)c(C(=O)O)c1)C(=O)c1cnc2ccccc2c1 | -9.65 |

Study 4
Target: CCND2, cyclin fold, Cln2 fusion (human)
Technique: yeast growth competition, sequencing
Matrix: yeast
Notes: weak parent motif
Relative to: not given
Direction: higher = stronger binding
Parent: viral docking peptide; KGVKRKLFAEDSS
| Substitution | normalised enrichment score |
| --- | --- |
| KGVKWKLFAEDSS [R5W] | -0.498 |
| KGVKAKLFAEDSS [R5A] | 0.109 |
| KGVKRKLFAEISS [D11I] | -0.0634 |
| KGVKRKLFAEDWS [S12W] | 0.233 |
| KGVKGKLFAEDSS [R5G] | -0.27 |
| KGVKRNLFAEDSS [K6N] | -0.0327 |
| KMVKRKLFAEDSS [G2M] | 0.391 |
| KGVKRKLFAEDMS [S12M] | 0.141 |
| KGVKEKLFAEDSS [R5E] | 0.0902 |
| KGVKRKLFDEDSS [A9D] | 0.292 |
| KGVKRKLFGEDSS [A9G] | 0.114 |
| KGVKRKTFAEDSS [L7T] | 0.0555 |
| KGKKRKLFAEDSS [V3K] | 0.23 |
| KGVTRKLFAEDSS [K4T] | -0.23 |
| KGVKRKLFAEDNS [S12N] | 0.0538 |
| KGVPRKLFAEDSS [K4P] | -0.181 |
| KHVKRKLFAEDSS [G2H] | 0.321 |
| KGVVRKLFAEDSS [K4V] | -0.422 |
| KGVKRKLFAEGSS [D11G] | 0.264 |
| KGVKRQLFAEDSS [K6Q] | 0.279 |
| KGVKRKLFAEDPS [S12P] | 0.542 |
| KGVKRKLDAEDSS [F8D] | -0.114 |
| KGVKRKLFAESSS [D11S] | 0.398 |
| KGVKVKLFAEDSS [R5V] | 0.0299 |
| KGVKRYLFAEDSS [K6Y] | -0.358 |

Study 5
Target: Histone acetyltransferase KAT6A, both winged helices, GST fusion (KAT6A, Homo sapiens, UniProt Q92794, residues 1-181)
Technique: protein binding microarray
Form: double-stranded DNA, one strand shown
Matrix: in vitro
Concentration: not given
Notes: 8-mer, flanks averaged, mean of 2 arrays, mostly near background
Relative to: not given
Direction: higher = stronger binding
Residues (chain): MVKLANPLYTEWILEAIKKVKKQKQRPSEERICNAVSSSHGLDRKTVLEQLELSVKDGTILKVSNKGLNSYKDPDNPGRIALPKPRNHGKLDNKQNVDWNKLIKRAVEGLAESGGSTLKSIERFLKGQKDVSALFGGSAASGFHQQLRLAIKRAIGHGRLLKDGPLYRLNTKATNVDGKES
| Oligonucleotide | E-score |
| --- | --- |
| AATCTGGC | -0.0881 |
| ACGTTTAA | -0.131 |
| CGGTATGA | 0.0651 |
| AGTGCCTC | -0.0791 |
| CGCGTAGC | 0.284 |
| ATTAGCCG | 0.229 |
| AATCCGAC | 0.117 |
| AGAAGCTC | -0.0921 |

Repeated from above (study 1):
| Sequence | enrichment fold change |
| --- | --- |
| HWTSMAFMHHWEPE | 6.31 |
| WSAQPNLYPVYQIIV | 11.8 |
| QWHPTDHHQWRVHDH | 10.4 |
| WPHTMHAAKHDFHF | 6.24 |
| SAERHMHWPWNHRHS | 6.56 |
| SDDLYAPQYQIFFNA | 8.33 |
